Measurements gathered from unrelated publications.
Every numbered part comes from another study and shows a few of its results, in no order. Substitutions count along the parent as printed.

Series 1 — method: protein binding microarray; molecule type: double-stranded DNA, one strand shown; matrix: in vitro; tested at: not given; baseline: not given; reading: higher = stronger binding
Target: Histone acetyltransferase KAT6A, both winged helices, GST fusion (KAT6A, Homo sapiens, UniProt Q92794, residues 1-181)
Notes: 8-mer, flanks averaged, mean of 2 arrays, mostly near background
Target sequence (chain): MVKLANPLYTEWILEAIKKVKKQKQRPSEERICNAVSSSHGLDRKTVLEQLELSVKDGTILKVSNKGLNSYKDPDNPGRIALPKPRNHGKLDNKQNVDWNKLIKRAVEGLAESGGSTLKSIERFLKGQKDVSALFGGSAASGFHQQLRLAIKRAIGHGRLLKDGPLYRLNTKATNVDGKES
With `CCCGAAAC` the E-score was 0.0327.
`CGAGGGCC` gave an E-score of 0.00911.
`CGTTCAAG` has an E-score of 0.161.
For `GCAAGCCA`, the E-score was -0.179.
The E-score of `TGAGCTCA` is reported as -0.068.
For `AATGGGGT`, the E-score was -0.117.
For `ACGTGTCG`, the E-score was 0.00152.
For `GGGACGTA`, the E-score was 0.0499.
The E-score of `TGGCCAAA` is reported as -0.187.
`ACCGCAGT` has an E-score of 0.0951.
With `GGCAGTAA` the E-score was 0.031.
`AGTACGAG` gave an E-score of -0.0634.
For `ATCCGGGC`, the E-score was 0.227.
With `TAGCAACA` the E-score was 0.00752.

Series 2 — method: RNA Bind-n-Seq; molecule type: RNA; matrix: in vitro; tested at: 200 nM; notes: whole 134-nt RNA, ends assumed; together with: 150 mM LiCl; baseline: input library; reading: higher = stronger binding; all molecules: 7-deaza-guanosine replaces G
Target: Fragile X messenger ribonucleoprotein 1, C-terminal low-complexity region (Fmr1, Mus musculus, UniProt P35922)
`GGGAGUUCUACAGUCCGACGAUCAGUCCUGUGCUACACAUCGUAUGUACCGAAUCGGGGAGGGGAGGGGUUUUUUUGGGGAAAGUAUUAUGUUACGCCGUUCGGAUCUGCACUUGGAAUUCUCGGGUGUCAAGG` has a log2 enrichment of 0.107.
For `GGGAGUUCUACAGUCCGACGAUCCACACACAACACGCACCCACACAGACACAGAGGGAAGGGGUUGGGAUGGGGACAGGGUGCACAGCAGGGCGGGGUAGGACCCCAGCCCCUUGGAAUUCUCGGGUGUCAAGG`, the log2 enrichment was 0.292.
`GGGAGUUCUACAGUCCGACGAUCCUGUGCUACACAUCGUAUGUACCGAAUCGGGGUUUUUGGGGAAAAAAAGGGGUUUUUGGGGAAAGUAUUAUGUUACGCCGUUCGGAUCUGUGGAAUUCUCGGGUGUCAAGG` has a log2 enrichment of -1.59.
The log2 enrichment of `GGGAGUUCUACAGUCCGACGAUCUGGCCCUGGUGGCAUGCGGGGAGGAAGAGGUGGCCUCAUGGAUCGUGGUGGUCCCGGUGGAAUGUUCAGAGGUGGCCGUGGUGGAAACAGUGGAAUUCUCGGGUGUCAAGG` is reported as -0.393.
`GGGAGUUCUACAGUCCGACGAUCGCAGGAAGUAAAAACAAAUGGAAAUGCUUCGGAUAGUGGCAGGUGUGGGGGUUGCUAAGGAAAGGGUGGGAUGGGAGUGGGUAAAGAGUUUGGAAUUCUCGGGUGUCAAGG` has a log2 enrichment of 1.62.
`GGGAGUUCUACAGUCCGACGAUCACCAUGCAGGUGGGCAUCUUUGGGAAGUGGGGCAAGGGGGGGAUAGGGAGGGGGGUAACAAAAUGGGAACAGGUGGUCCCAGGUCGUUUCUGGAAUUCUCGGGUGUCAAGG` gave a log2 enrichment of 1.49.
With `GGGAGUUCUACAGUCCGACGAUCGUCCUGUGCUACACAUCGUAUGUACCGAAUCGGGGUUUGGGGUUUUUGGGGUUUGGGGAAAGUAUUAUGUUACGCCGUUCGGAUCUGCACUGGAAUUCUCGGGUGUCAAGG` the log2 enrichment was -0.118.
For `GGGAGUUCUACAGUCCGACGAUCUCAAGUCCUGUGCUACACAUCGUAUGUACCGAAUCGGGAAAGGAAAGGAAAGGGAAAGUAUUAUGUUACGCCGUUCGGAUCUGCACUUCCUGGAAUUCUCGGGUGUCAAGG`, the log2 enrichment was -0.689.
`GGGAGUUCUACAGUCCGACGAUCUCAAGUCCUGUGCUACACAUCGUAUGUACCGAAUCGGGCCGGGGCCGGGGCCGGAAAGUAUUAUGUUACGCCGUUCGGAUCUGCACUUCCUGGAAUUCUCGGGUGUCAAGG` has a log2 enrichment of 0.285.
With `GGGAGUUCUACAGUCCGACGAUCUGGCCCUGGUGGCAUGCGGGGAGGAAGAGGUGGCCUCAUGGAUCGUGGUGGUCCCGAUGGAAUGUUCAGAGGUGGCCGUGGUGGAGACAGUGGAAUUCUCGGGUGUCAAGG` the log2 enrichment was -0.742.

Series 3 — method: DHFR PCA, deep sequencing; matrix: yeast; together with: (+)-ABA 0.0091 µM; baseline: wild-type fitted maximum; reading: higher = stronger binding
Target: ABI1, truncated, D143A, DHFR fusion (Arabidopsis thaliana)
Notes: methotrexate growth selection, single substitutions
Parent: PYL1, truncated, DHFR fusion (Arabidopsis thaliana); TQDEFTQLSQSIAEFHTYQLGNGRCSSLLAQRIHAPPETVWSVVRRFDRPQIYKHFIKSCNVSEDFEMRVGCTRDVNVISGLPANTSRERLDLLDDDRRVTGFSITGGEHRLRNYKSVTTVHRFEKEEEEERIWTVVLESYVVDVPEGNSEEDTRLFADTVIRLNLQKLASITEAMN
`L93T`: “relative binding score” -0.34%.
Under “relative binding score”, `T86I` is recorded as 44.2%.
Under “relative binding score”, `S59V` is recorded as 0.139%.
`D96K`: “relative binding score” -6.54%.
For `V137N`, “relative binding score” read -0.777%.
`Y18I` — result for “relative binding score”: -4.48%.
Under “relative binding score”, `H110L` is recorded as 15.8%.
For `S42R`, “relative binding score” read 9.36%.
`F47R` — result for “relative binding score”: -1.97%.
`Q31T` — result for “relative binding score”: 2.27%.

Series 4 — method: RNA Bind-n-Seq; molecule type: RNA; matrix: in vitro; tested at: 365 nM; baseline: no-protein control; reading: higher = stronger binding
Target: RNA binding protein fox-1 homolog 2, RRM domain, GST-SBP tag (RBFOX2, Homo sapiens, UniProt O43251-10, residues 100-194)
Notes: natural RNA segment, single round, ends assumed
Target sequence (chain): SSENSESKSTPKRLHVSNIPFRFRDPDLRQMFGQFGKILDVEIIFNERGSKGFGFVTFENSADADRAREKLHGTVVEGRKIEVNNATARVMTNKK
For `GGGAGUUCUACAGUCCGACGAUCAUUUUCUAUUUAUUAUUGUUACAAUAGGUAAUAGUUAUAGCAAUUAUUUAUUGAUUUGUAACAACUUGUUUUUAACCAAACUUUGUAGCAUGGAAAAAAUUUUCCAUCCAUGGAAUUCUCGGGUGCCAA`, “RBNS enrichment (R)” read 0.598.
Under “RBNS enrichment (R)”, `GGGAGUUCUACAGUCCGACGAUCCACAGUGCAUUGUUUUUCUACCUGCUUGUCUUAUUUUUAGAAUAAUUUAGAAAAACAACAAAGGCUGUUUUUCCUAAUUUUGGCAUGAACCCCUUGUUCCAAGUGAAGGCUGGAAUUCUCGGGUGCCAA` is recorded as 1.47.
`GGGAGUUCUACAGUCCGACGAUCCCAUCACAGUACCAGCCACUGGUCACUCUGACCCUGCUUUGCCAAGAGUCCUUUCUCAGACAACUGAGGGAGUGUUUGGGGUGAUAUCCCAGAGACCUGGAGUUCCAGUGUGGAAUUCUCGGGUGCCAA` — result for “RBNS enrichment (R)”: 0.284.
`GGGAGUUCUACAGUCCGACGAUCCCUCCCGUGGAUCUCCCGGGGUGGGGGCAGGGCGGGUCCCACGAUGGCCCCCAUUGCCCUCAUCACCCUGACACCCCCACAUUCUCUCCUCUGGACCCCCAGGAGGCUGGUGGAAUUCUCGGGUGCCAA`: “RBNS enrichment (R)” 0.375.
`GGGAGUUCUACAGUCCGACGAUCACAGCUACCCCCAUAUUCAAAAAUAGUUCUUUUCCCUGUAGGGAAACAGGUAGCUCUCCAUAAGGAAAUUAUCAUGAGUGUGUUCUCCCAUCAGUGCACUUCUCCCAGGGUGGAAUUCUCGGGUGCCAA`: “RBNS enrichment (R)” 0.348.
`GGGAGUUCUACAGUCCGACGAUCAGUUACCCUUUUAGUUUUACUGUGUUCUGUGAAAAUUUGUAAUUGGUUGAGAAUCACUGUGGGCGUCCAUUCUUAUUCAACUAAAUCUCCACAGGUUUUUUGAGCUGGUGUGGAAUUCUCGGGUGCCAA`: “RBNS enrichment (R)” 0.442.
`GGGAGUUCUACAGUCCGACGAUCCCAGAUGCCUGAUCAGAUGAGAAGCCCGCCAUGAUACUGUCACAGUGCCUAGAAUGGGCUCUUUAUCCAGUAGACACCACUGUACUUUUUGAUACGAGGGCAGUCUUAACUGGAAUUCUCGGGUGCCAA` — result for “RBNS enrichment (R)”: 0.373.
`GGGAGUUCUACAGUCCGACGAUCCCCAUCUCUUAACAAUAUGGACAGAUGAGUGUGCCAUGGCCAUGAGCUAUUUCCUAACGCAGAAGGAAUUUGUUGUUACUUUUUGGAUUGUACUCUUCUAGGCUGGACCGUGGAAUUCUCGGGUGCCAA` — result for “RBNS enrichment (R)”: 0.627.
Under “RBNS enrichment (R)”, `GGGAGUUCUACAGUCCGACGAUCCAUUUGUCCCCCAACCCCACUGAGAACUAAAUGCUGUACCACAGAGCCGGGUGUGAACUAUGGUUUAGAAGGUUCAAGUUUCCAAUUAAAGUCAUUGAAGAAAACUUGAAUGGAAUUCUCGGGUGCCAA` is recorded as 0.406.
`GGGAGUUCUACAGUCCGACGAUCUACUGUGCCCUUUCUUCCCAUCACCUUGCUCUCUCUGGCUCUGUCUCUUCUUGCUGUCUCUCUCCUUUUAGCAGUCACUUCUGAGAAGUAAAGAACCUGACUUAGUGCUGUGGAAUUCUCGGGUGCCAA` — result for “RBNS enrichment (R)”: 0.442.
